Measurements from different studies.
Protocols differ between the studies behind these lines.
UCHL1: Ubiquitin carboxyl-terminal hydrolase isozyme L1 (UCHL1, Homo sapiens, UniProt P09936)
Chain of UniProt P09936 (whole entry, looked up): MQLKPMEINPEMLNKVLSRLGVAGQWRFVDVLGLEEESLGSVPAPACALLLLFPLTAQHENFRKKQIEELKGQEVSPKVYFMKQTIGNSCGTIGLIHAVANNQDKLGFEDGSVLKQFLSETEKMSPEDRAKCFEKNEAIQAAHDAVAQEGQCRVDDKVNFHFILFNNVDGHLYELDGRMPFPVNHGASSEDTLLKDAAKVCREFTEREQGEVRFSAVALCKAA
T1: RNA aptamer, 9-nt flexible stem loop; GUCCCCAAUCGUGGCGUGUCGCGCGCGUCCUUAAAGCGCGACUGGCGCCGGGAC
T2: RNA aptamer (Homo sapiens); chain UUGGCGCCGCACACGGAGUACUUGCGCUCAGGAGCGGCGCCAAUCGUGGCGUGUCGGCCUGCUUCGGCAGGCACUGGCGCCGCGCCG; chain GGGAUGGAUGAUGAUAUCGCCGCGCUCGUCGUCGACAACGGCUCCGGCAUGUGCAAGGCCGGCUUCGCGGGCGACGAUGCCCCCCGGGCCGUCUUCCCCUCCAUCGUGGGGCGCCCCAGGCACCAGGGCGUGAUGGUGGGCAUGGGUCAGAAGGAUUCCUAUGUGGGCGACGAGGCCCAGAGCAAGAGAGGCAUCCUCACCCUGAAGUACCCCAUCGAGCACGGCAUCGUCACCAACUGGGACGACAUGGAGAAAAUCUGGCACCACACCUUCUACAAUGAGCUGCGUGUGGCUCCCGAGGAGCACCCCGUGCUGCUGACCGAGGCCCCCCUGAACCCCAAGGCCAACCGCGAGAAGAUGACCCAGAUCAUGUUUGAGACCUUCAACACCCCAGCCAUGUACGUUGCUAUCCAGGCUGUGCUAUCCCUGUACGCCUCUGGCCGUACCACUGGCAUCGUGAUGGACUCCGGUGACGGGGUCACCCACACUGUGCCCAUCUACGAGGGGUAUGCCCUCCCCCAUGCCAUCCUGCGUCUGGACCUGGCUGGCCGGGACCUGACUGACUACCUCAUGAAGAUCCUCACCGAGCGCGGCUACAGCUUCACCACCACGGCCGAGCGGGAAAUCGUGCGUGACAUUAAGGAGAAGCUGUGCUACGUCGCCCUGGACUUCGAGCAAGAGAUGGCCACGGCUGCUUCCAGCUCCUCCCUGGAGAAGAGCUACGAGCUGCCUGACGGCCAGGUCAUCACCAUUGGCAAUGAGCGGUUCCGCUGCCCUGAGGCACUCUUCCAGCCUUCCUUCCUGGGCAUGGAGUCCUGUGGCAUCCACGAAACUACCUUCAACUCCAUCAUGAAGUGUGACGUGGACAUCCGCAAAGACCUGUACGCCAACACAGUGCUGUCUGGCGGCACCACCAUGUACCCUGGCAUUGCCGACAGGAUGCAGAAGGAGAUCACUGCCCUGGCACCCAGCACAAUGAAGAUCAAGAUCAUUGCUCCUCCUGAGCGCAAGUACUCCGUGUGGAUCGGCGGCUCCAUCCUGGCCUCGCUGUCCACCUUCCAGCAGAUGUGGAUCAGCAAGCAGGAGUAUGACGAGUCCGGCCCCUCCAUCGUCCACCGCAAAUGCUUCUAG
T3: RNA aptamer; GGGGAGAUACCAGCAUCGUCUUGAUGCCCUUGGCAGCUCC
T4: RNA aptamer del22-39, UUCG tetraloop closing ends; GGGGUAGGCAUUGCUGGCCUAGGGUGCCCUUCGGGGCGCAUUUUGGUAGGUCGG
T5: RNA aptamer; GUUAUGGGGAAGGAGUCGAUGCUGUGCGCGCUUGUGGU
T6: RNA aptamer; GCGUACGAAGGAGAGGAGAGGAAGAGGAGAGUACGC
T7: RNA aptamer; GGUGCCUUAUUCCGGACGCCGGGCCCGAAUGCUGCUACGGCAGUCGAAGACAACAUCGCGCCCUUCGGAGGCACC
T8: RNA aptamer; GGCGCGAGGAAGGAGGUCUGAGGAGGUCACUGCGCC
T9: RNA aptamer, 5'-triphosphate; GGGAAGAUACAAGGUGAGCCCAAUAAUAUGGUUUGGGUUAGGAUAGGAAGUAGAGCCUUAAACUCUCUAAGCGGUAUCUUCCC
T10: RNA aptamer; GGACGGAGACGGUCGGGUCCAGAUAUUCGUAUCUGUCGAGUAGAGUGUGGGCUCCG

Compound | target | test | conditions | measurement | result
N#CC(=Cc1ccc(C#N)cc1)C(=O)Nc1ccccc1Cl | UCHL1 | covalent, intact protein LC-MS | 12.5 µM | labelling | 24.8%
CN(CCO)c1cc2sc(/C=C(\C#N)c3ccc(C#N)cc3)cc2s1 | T1, RNA aptamer, 9-nt flexible stem loop | fluorescence turn-on | – | binding | binds weakly
CN(CCO)c1cc2sc(/C=C(\C#N)c3ccc(C#N)cc3)cc2s1 | T2, RNA aptamer (Homo sapiens) | fluorescence activation | – | binding | binds
Cn1c(=O)c2c(ncn2C)n(C)c1=O | T3, RNA aptamer | ITC | 25 °C, MgCl2 mM | binding | no binding
Nc1nc2c(ncn2[C@@H]2O[C@H](COP(=O)(O)OP(=O)(O)OP(=O)(O)O)[C@@H](O)[C@H]2O)c(=O)[nH]1 | T4, RNA aptamer del22-39, UUCG tetraloop closing ends | imino proton NMR titration | – | binding | no binding
CN1C=CC(=Cc2sc3ccccc3[n+]2CC(=O)NCCOCCOCCOCCNC(=O)CCCC[C@@H]2SC[C@@H]3NC(=O)N[C@@H]32)c2ccccc21 | T5, RNA aptamer | fluorescence light-up | 10 µM dye | binding | binds
CN(C)c1ccc(Nc2c3ccc(NC(=O)CCN4CCCC4)cc3nc3cc(NC(=O)CCN4CCCC4)ccc23)cc1 | T6, RNA aptamer | competitor, competition fluorescence | – | binding | binds
CN(C)c1ccc2c(-c3ccc(C(=O)NCCOCCOCCNc4ccc([N+](=O)[O-])cc4[N+](=O)[O-])cc3C(=O)[O-])c3ccc(N(C)C)cc3[o+]c2c1 | T7, RNA aptamer | fluorescence turn-on | MgCl2 5 mM, KCl 100 mM | binding | binds
Cc1ccc(-c2csc(NC(=O)CCl)n2)cc1C | UCHL1 | covalent, intact protein LC-MS | 12.5 µM | labelling | 6.31%
CN1C(=O)/C(=C/c2cc(F)c(O)c(F)c2)N=C1/C=N/O | T8, RNA aptamer | fluorescence turn-on | MgCl2 5 mM, KCl 100 mM | binding | binds
CC1=N/C(=C\c2cc(F)c(O)c(F)c2)C(=O)N1CC(F)(F)F | T9, RNA aptamer, 5'-triphosphate | 19F NMR | – | binding | binds
CC1=N/C(=C\c2cc(F)c(O)c(F)c2)C(=O)N1CC(F)(F)F | T10, RNA aptamer | fluorescence turn-on | MgCl2 5 mM, KCl 100 mM | binding | binds
Nc1ncnc2[nH]cnc12 | T9, RNA aptamer, 5'-triphosphate | fluorescence competition | – | binding | no binding

Repeated from above:
Compound | target | test | conditions | measurement | result
Nc1nc2c(ncn2[C@@H]2O[C@H](COP(=O)(O)OP(=O)(O)OP(=O)(O)O)[C@@H](O)[C@H]2O)c(=O)[nH]1 | T4, RNA aptamer del22-39, UUCG tetraloop closing ends | imino proton NMR titration | – | binding | no binding
CN(C)c1ccc(Nc2c3ccc(NC(=O)CCN4CCCC4)cc3nc3cc(NC(=O)CCN4CCCC4)ccc23)cc1 | T6, RNA aptamer | competitor, competition fluorescence | – | binding | binds
